Published values collected from several papers.
A part holds a random share of what one study measured.

Block 1
Target: RNA binding protein fox-1 homolog 2, RRM domain, GST-SBP tag (RBFOX2, Homo sapiens, UniProt O43251-10, residues 100-194)
Method: RNA Bind-n-Seq
Molecule type: RNA
Medium: in vitro
Concentration: 365 nM
Setting: natural RNA segment, single round, ends assumed
Relative to: no-protein control
Reading: higher = stronger binding
Construct (chain): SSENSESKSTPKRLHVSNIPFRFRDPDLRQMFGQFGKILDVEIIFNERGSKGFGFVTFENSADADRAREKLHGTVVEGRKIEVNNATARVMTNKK
| Sequence | RBNS enrichment (R) |
| --- | --- |
| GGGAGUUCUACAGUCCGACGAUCGUCUUCAGCACUCCUGAGAAGUUGGCUCUUUACCCCUUCUCCUCUGCUGCCCCUCCUUCCUGCUGGUUCAGGUAGCCCCAGCCACGUGGGUUAGAGUCCUGUGCUGGCCUUGGAAUUCUCGGGUGCCAA | 0.336 |
| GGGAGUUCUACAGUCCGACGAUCUGCUUUGCCCAGCCUUGCUUUGGACCAGCUCUGCUACGUCUCCAGGGAAACCAAGCUUGGGCCUUGCAGUGGAAAUGGAUCCGAGGGCCCAGGGGACCCUGGUGGAUUUAUGGAAUUCUCGGGUGCCAA | 0.926 |
| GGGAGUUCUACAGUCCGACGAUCUGACGGGGGCUCCAUACGGACCUGGGGACUGGGCUGAGAGGGUGGACGAGUUCAGGUUUGUUUUUGCAGCAGAUUCCGUCGUUCUUACUGAGUCUGCAGCGGGGGAGUGAUGGAAUUCUCGGGUGCCAA | 1.15 |
| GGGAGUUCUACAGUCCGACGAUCAAUAAGUUACUAUUUAUUCCGCUCCGCCCCCUCCCUCUCCCUUGAGAAGCUGAGUCUUCUGCAUCAGAUUAUUGCAACAUUUAACCUGAAUUUAAAAGCACACGAAACAAUGGAAUUCUCGGGUGCCAA | 1.02 |
| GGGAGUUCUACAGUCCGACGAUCUUUUAAAUAAGAAAAUAAUCUACACAGUCAAGAUACCUAGCAAAUAAGUGGUGCCAUUGGAAUGUCAGCAUUGCUUGAGUGUCAUGCUGAGGGAUGGUCCUGACAGUAAAUGGAAUUCUCGGGUGCCAA | 0.647 |
| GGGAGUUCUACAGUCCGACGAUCGUGGGUAAAAGGGGCUUCAAAAAACGGAUAGAACAGGAUUUUCUAGGAGUUACACAUACAUUUUAUCCUGUCAUACCUCGAGAUAAAGUGGCAUGUUAGUGAGGAGUUCUUGGAAUUCUCGGGUGCCAA | 0.801 |
| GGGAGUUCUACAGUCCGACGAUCAUAGCCACUAACUCUGCAACAAUCCUUGGCUGUUGUCAUUGUUGUCUUUAUUUUAGGCUGGAUUUCAGAUGUGUUGCUUCUGAAGACACAAUGAAAGAAUGCAAUCUUCCUGGAAUUCUCGGGUGCCAA | 2.07 |
| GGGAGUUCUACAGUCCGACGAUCAGGCUAGGGAGGGUUGGUUACAGGGUGGCAGGGUCCCAGGUCGGAUGACAAGCUGUCUCCUGCGGAAGUGUAGCUUGUGGGUAUAGAGUUCUGUCUGCACCUGCCCUCUAUGGAAUUCUCGGGUGCCAA | 0.948 |
| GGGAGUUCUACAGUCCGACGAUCAACUCCUGGCACAGUGUUCCUAGACCCCCAGGCUGCAUGGGGGACAGGAGGGCCUGUAGAUAACCCUUCCAUUUCCUUCAUCUCAUCCAGUCUGUAGGGAUACAUUUUUCUGGAAUUCUCGGGUGCCAA | 0.742 |
| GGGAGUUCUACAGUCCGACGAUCUUAACUCCUUGAGGCCAGGCCAGAAGUGUUAGGAGCUAAGUAUGAAUGAACUGUGUAAUAAGAGAGGCAGAGAAAAUGCAGGACUCCAGUUGAGAAGGCUUAAUCUCCUGUGGAAUUCUCGGGUGCCAA | 1.14 |
| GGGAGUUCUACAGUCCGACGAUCGCCCUCCGCUCUAGUCCUAGCAGGGCAGCCAUGAGCCGAGGGGAGGUGGAGAAGGCUUGUGCAGGUACAAACGACCUCAAGGACUGUGGCCUGCAACUGGAGACUGCUAAUGGAAUUCUCGGGUGCCAA | 0.479 |
| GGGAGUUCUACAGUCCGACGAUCGCCAGUGAGGAAAGGGGAGAGAGCAGAGCUUGCUGUCAGAGGCCAGGCUCCCAGUGCAGCCUCCUCUUGCUACGCCAUGCCACCCCCAUUCACAGGGAAACCUCUUUCCUUGGAAUUCUCGGGUGCCAA | 0.221 |

Block 2
Target: RING finger protein unkempt homolog, zinc fingers 1-6, SBP tag (UNK, Homo sapiens, UniProt Q9C0B0, residues 30-357)
Sequence of UniProt Q9C0B0 (30-357, looked up): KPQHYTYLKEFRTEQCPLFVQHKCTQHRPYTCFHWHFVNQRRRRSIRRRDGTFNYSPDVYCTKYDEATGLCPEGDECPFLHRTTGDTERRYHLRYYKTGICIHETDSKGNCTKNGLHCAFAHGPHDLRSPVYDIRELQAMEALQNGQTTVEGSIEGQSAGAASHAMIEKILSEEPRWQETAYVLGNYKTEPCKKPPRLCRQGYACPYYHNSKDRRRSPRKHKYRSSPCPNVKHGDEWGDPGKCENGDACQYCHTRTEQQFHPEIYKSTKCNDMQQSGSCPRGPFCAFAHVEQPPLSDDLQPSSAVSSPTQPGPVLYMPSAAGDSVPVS
Method: RNA Bind-n-Seq
Molecule type: RNA
Medium: in vitro
Concentration: 100 nM
Setting: RNA with constant flanks, vertebrate orthologous sites, ends assumed
Relative to: input RNA pool
Reading: higher = stronger binding
| Sequence | bound/input enrichment |
| --- | --- |
| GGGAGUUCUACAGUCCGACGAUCAAGAACUCUUGCAGUCUUACAUGUUAUAAAAAAUAUGUAUAUCUGAAUUGUAAGAGUUGUUAGCACAGGUUUUUUUUUUUUUUUUAAGCACUUGUUUUGGGUACAAGGCAUGUCUGAAAUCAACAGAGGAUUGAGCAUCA | 0.675 ratio |
| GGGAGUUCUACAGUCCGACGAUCCUCUCAUUUUUAUGCACCUAAAAAUCACUAUGAAAUUUUGAAACAUUCACUAGUUUUGCUGAGAUCUGCUCUGGCAGGUGUCUGUCUGUUCGAUACAUCUUAGCCACGUCUUUACCUGAACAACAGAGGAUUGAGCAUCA | 0.649 ratio |
| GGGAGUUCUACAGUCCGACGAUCGCCUCUAGCAGGCAGUUUCAGGGAGAGAUAGGCUUCAGGGAAUAUAAAUUUAUUUAAUAUGAGUGUUCUUGAAGUAUAAACUUGAUAUAAUUGUUUUGGGAGGGGGACAGUGAUGAUGACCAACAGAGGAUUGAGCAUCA | 1.03 ratio |
| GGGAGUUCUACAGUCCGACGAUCACUGUUGUUAAGCACUGUGUUCCAGACCGUGUCUGACUUAGUGUAACCUAGGAGAUUUUAUAGUUUUAUUUUAAUGAAACCCUGAUUGACGCACAGCAGUGGGGAGAACAGCGUCUUUUACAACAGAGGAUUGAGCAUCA | 2.19 ratio |
| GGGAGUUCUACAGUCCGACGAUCAGAUUUGGACCUUGGAGCAGAAGCAGCAGUGAGCAACAGUAAAGCAAGCUUGUAAAAUUAUAGCCCCAUGCAGCUGCACAACCACAGAACGGUGAUGCAACAGCUACAUGCAAGUCUUUACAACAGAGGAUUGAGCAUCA | 0.404 ratio |
| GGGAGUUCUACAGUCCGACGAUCUAAUUAAUCAGUUGAAUUGUAUUCUUAUCAAAUGUAACAUUGUGUAGCUUUUGUAUAAAACCAAGAAUUGGAGAAGUCCAAAUAUCAGCUCUCUUGCUUUAAUGAAAUCACCAGUUUUGUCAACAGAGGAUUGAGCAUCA | 0.344 ratio |

Block 3
Target: Protein max, full length (MAX, Homo sapiens, UniProt P61244-2, residues 1-151)
Method: protein-binding microarray
Molecule type: double-stranded DNA, one strand shown
Medium: in vitro
Concentration: not given
Setting: k-mer, scored over probes, only values ≥0.25
Reading: higher = stronger binding
| Sequence | E-score |
| --- | --- |
| CACATGCA | 0.469 |
| ACATGGGT | 0.322 |
| ACATGCAT | 0.378 |
| CACGACCA | 0.276 |
| CATGTACA | 0.347 |
| CGCCTGAC | 0.26 |
| CAGGTGTC | 0.322 |
| CAGCACGA | 0.354 |
| CAAACATG | 0.287 |
| CACATGGA | 0.476 |
| CATGCCAG | 0.286 |
| ACACGTGC | 0.495 |

Other studies, line by line
| Substance | target | assay | test system | setting | how to read | quantity | value |
| --- | --- | --- | --- | --- | --- | --- | --- |
| PhoQ, residues 284 288 289 292 302 303 SLANKL | PhoP, residues 12 14 15 18 19 SYFRT (Escherichia coli, UniProt P23836) | Sort-seq, measured: YFP reporter | E. coli | PhoQ-PhoP variant library, together with: 10 µM Mg2+ | relative to: high Mg2+ state, higher = stronger signaling | fold induction | 4.98 |

For quick reference, copied from above (block 3):
| Sequence | E-score |
| --- | --- |
| ACATGCAT | 0.378 |
| CAGGTGTC | 0.322 |
| CACATGGA | 0.476 |
| CATGTACA | 0.347 |
